# Results collected from several papers.
# Every numbered part comes from another study and shows a few of its results, in no order.

# Sample 1 — cell line: HEK-293T-ACE2; concentration: concentration not given; relative to: vehicle
Compound,cell number [%]
CC(=O)O[C@]1(C(C)=O)CC[C@H]2[C@@H]3C[C@H](C)C4=CC(=O)CC[C@]4(C)[C@H]3CC[C@@]21C,102
C/C=C1\NC(=O)[C@H]2CSSCC/C=C/[C@H](CC(=O)N[C@H](C(C)C)C(=O)N2)OC(=O)[C@H](C(C)C)NC1=O,77.6
CN1CCc2nc(C(=O)N[C@@H]3C[C@@H](C(=O)N(C)C)CC[C@@H]3NC(=O)C(=O)Nc3ccc(Cl)cn3)sc2C1.Cc1ccc(S(=O)(=O)O)cc1.O,103

# Sample 2 — method: universal PBM; form: double-stranded DNA, one strand shown; matrix: in vitro; concentration: not given; reading: higher = stronger binding
# Target: Sal-like protein 4, full length isoform B (SALL4, Homo sapiens, UniProt Q9UJQ4-2, residues 1-616)
# Setting: 8-mer, flanks averaged, mean of replicates
# Target sequence (chain): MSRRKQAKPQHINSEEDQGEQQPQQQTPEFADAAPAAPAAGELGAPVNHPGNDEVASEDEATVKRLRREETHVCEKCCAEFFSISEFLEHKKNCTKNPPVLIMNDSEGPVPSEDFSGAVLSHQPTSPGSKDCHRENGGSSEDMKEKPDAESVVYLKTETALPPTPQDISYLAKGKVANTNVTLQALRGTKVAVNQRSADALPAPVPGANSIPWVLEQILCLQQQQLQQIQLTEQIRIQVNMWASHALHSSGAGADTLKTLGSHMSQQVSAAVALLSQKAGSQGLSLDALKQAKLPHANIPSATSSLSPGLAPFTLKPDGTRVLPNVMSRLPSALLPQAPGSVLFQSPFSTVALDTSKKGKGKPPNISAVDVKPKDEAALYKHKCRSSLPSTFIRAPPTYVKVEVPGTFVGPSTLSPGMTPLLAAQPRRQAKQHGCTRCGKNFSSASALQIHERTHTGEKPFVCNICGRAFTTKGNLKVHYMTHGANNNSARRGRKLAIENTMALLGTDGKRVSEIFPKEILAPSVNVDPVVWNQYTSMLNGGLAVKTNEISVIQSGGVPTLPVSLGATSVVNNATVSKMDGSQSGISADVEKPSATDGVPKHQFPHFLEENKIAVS
Oligonucleotide,E-score
CGACGAAA,0.144
CGCAATAC,0.11
AAACCGAT,-0.00736
GCCCCAAC,-0.141
ATTATCTC,0.272
ATTCTGCC,-0.0295
ACAGCCAT,0.0348
GATGGGAC,-0.11

# Sample 3 — method: RNA Bind-n-Seq; form: RNA; matrix: in vitro; concentration: 365 nM; relative to: no-protein control; reading: higher = stronger binding
# Target: RNA binding protein fox-1 homolog 2, RRM domain, GST-SBP tag (RBFOX2, Homo sapiens, UniProt O43251-10, residues 100-194)
# Setting: natural RNA segment, single round, ends assumed
# Shared flanks, not repeated: GGGAGUUCUACAGUCCGACGAUC … UGGAAUUCUCGGGUGCCAA
# Construct (chain): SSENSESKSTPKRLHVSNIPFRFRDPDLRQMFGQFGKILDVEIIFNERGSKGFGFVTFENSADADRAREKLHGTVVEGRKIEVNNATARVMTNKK
Oligonucleotide,RBNS enrichment (R)
GGUGUUUUCCUCCCUUGCCCCAUUAUCUUUUCACCUCCCAGGUCUACCAUUUCAUGGUGGUCGUUGGGUCCGCCUAAAGGAUUUGAGCGUUUGCCAUUGCAAGCAUAGUG,0.411
GCCCAACAUGACAAUUCUGGCUAUGAAAAUUAUGUUUAAACUGUGUAUGAUCUAUUUUAUGUGCUCUAUGUUCCCAUUUGUUUGUUUGGUCUGGACAGUGGUUCUGGAAU,1.56
CCAUUCAUUGGCUAAUCCAUACAGCAAAUAUUUGAGUGUUUGUGAUAUGGCAGUAAAAAUGUGAUUACUUUGUAUGUACAUUAACCAAAACCAGUGAAGUUUGAUGGACU,0.294
AGUAGCAACAACAAGAUCACAUGGGUGGGGACCCUAGGUCCGGUGGCCAGCUUAUGGCAGGAGCAAAGUCAGUCCCCCUUUCAGAGCCUCAGGAAGCUUGGAACACCUCA,0.387
AGGGGCUAUGGGAACCGACAGAACAUGGGCUGUCUUCCCACAACACCACAGGACUGCAGGGUGCACAACUCCCCUGCCAAGGAAAACCAUGCAGUCCUCCCCUCCCUGGU,0.457
UAACAUAUUUCGAAAGUAAGGUUAGCUCUAUAAAUAAUUUAGAGAGGUGAGAGUAUUUAUUUUUGGUAUGGCUGGCUCACUGCACAGACUCUGUGUUUAUGUGUGUGUGU,0.568
AAUCCCUUCCUUUCACUAUCUUCUUUUUGGGGGGUAGGUGGAAGGGAUUGACAUUGGAUGGGGGAGGUAGGAGGCACAUCAAUAAAAAGGAAACCACCGAGCUGAAUUGA,0.459
UUGUUUCUAUUAUUAUCUUUUAAUUUCUUUUUUUAUUUAAUAGUAAUAGCUCCUUUCUCCUUCCUCUGAUUUUUAUAUGCUGCUAAAUAUAUUUUAAAUAUACUGUGUUU,1.18

# Sample 4 — observed: enzyme activity; mode: inhibitor; concentration: 20 µM
# Target: Replicase polyprotein 1ab, polymerase (rep, Severe acute respiratory syndrome coronavirus 2, UniProt P0DTD1)
SMILES,inhibition
C[C@@H](O)[C@H]1C(=O)N2C(C(=O)[O-])=C(SC3Cn4cnc[n+]4C3)[C@H](C)[C@H]12 (stereo partly drawn),-2.51%
O=C(O)c1ccc(N2N=C(Cc3ccccc3)/C(=C\c3ccc(-c4ccccc4F)o3)C2=O)cc1,1.19%
Cn1nnc(-c2ccc(-c3ccc(N4C[C@H](COP(=O)(O)O)OC4=O)cc3F)cn2)n1,15.5%
COc1ccc(N(C(=O)Oc2c(C)cccc2C)c2ccnc(Nc3ccc(N4CCN(C)CC4)cc3)n2)c(OC)c1,-6.23%
COc1cccc(OC)c1C(=O)N[C@@H]1C(=O)N2[C@@H]1SC(C)(C)[C@@H]2C(=O)O,19.9%
CCCCNc1c(C(=O)OCC)c(C)nc2c1cnn2CC,-1.64%
CC(=O)OCC(=O)[C@@]1(O)CC[C@H]2[C@@H]3CCC4=CC(=O)CC[C@]4(C)[C@H]3[C@@H](O)C[C@@]21C,9.48%
Cc1c(-c2ccnn2C)cc(C(=O)NCc2ccc(S(C)(=O)=O)cn2)c(=O)n1-c1cccc(C(F)(F)F)c1,-3.28%
CC(C)n1nnc2cc(C(=O)O)ccc21,-0.87%
COc1ccc(Nc2nccc(NCCO)n2)cc1,9.46%
Cc1c(Cn2c(C)nc3c(C(=O)O)cc(N4CCOCC4)cc32)cccc1C(F)(F)F,-1.51%
CCCOCCn1c(=O)c(N2CCN(CCO)CC2)nc2cnc(-c3ccc(OC)nc3)cc21,-0.88%
NCC(=O)Nc1ccc(-n2nc(C(F)(F)F)cc2-c2ccc3c(ccc4ccccc43)c2)cc1,-11.8%
CS(=O)(=O)CCNCc1nc(-c2ccc3ncnc(Nc4ccc(OCc5cccc(F)c5)c(Cl)c4)c3c2)cs1,13.3%
Nc1ccn([C@H]2CC[C@@H](CO)O2)c(=O)n1,-7.76%
CCCC(CCC)C(N)=O,0.75%
COc1cc([C@H]2Oc3cc([C@H]4Oc5cc(O)cc(O)c5C(=O)[C@@H]4O)ccc3O[C@@H]2CO)ccc1O,-9.6%
C[C@]12CCC(=O)C=C1CC[C@@H]1[C@@H]2[C@@H](O)C[C@@]2(C)[C@H]1CC[C@]2(O)C(=O)COC(=O)CCC(=O)O,30.1%
COc1ccc(-c2nc(-c3ccc(-c4cccc(Cl)c4)o3)[nH]c2-c2ccc(OC)cc2)cc1,-5.21%
O=c1ccc2ccccc2o1,-7.36%
CC(C)(C)CCN1C[C@@H]2C(CNC(=O)c3cc(Cl)cc(Cl)c3)[C@@H]2C1 (stereo partly drawn),-1.45%
CCOc1ccccc1-n1c(C(C)N2CCN(C(=O)COc3ccc(Cl)cc3)CC2)nc2ccccc2c1=O (stereo not drawn),1.18%
c1ccc(N2CCN(Cc3nc4ccccc4[nH]3)CC2)nc1,-3.59%
OCC(Br)(Br)Br,0.89%
O=C(NCCO)c1cccc(-c2cc(Nc3ccc(OC(F)(F)F)cc3)ncn2)c1,6.05%

# Sample 5 — method: protein binding microarray; form: double-stranded DNA, one strand shown; matrix: in vitro; concentration: not given; relative to: not given; reading: higher = stronger binding
# Target: Histone acetyltransferase KAT6A, winged helix 1, GST fusion (KAT6A, Homo sapiens, UniProt Q92794, residues 1-85)
# Setting: 8-mer, flanks averaged, mean of 2 arrays, mostly near background
# Target sequence (chain): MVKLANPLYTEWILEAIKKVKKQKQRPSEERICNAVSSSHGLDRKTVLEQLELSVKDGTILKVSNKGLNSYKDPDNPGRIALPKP
Oligonucleotide,E-score
TTCTAGAA,-0.21
GATGATCA,-0.106
CTACAATC,-0.0738
ATACATAT,-0.0354
GGTCCGCA,0.227
AGTCCCTG,-0.00536
ATGGGTAA,-0.0492
ATCGATTA,-0.139

# Mixed results — observed: enzyme activity; mode: inhibitor
Compound,target,setting,inhibition [%]
CO[C@H]1C([C@@]2(C)O[C@@H]2CC=C(C)C)[C@]2(CC[C@H]1OC(=O)/C=C/C=C/C=C/C=C/C(=O)O)CO2 (stereo partly drawn),"Replicase polyprotein 1ab, main protease (rep, Severe acute respiratory syndrome coronavirus 2, UniProt P0DTD1)","20 µM, primary screen",45.3
O=c1sn(-c2cccc3ccccc23)c(=O)n1Cc1ccccc1,chymotrypsin,"10 µM, with DTT",30.7

# Some of these lines once more (sample 4):
SMILES,inhibition
COc1ccc(N(C(=O)Oc2c(C)cccc2C)c2ccnc(Nc3ccc(N4CCN(C)CC4)cc3)n2)c(OC)c1,-6.23%
COc1cccc(OC)c1C(=O)N[C@@H]1C(=O)N2[C@@H]1SC(C)(C)[C@@H]2C(=O)O,19.9%
CCCCNc1c(C(=O)OCC)c(C)nc2c1cnn2CC,-1.64%
CC(=O)OCC(=O)[C@@]1(O)CC[C@H]2[C@@H]3CCC4=CC(=O)CC[C@]4(C)[C@H]3[C@@H](O)C[C@@]21C,9.48%
Cc1c(-c2ccnn2C)cc(C(=O)NCc2ccc(S(C)(=O)=O)cn2)c(=O)n1-c1cccc(C(F)(F)F)c1,-3.28%
CC(C)n1nnc2cc(C(=O)O)ccc21,-0.87%
COc1ccc(Nc2nccc(NCCO)n2)cc1,9.46%
